Measured values pooled from the literature.
Compare with care: the assays were run in different laboratories.
Target: Peroxisome proliferator-activated receptor gamma (PPARG, Homo sapiens, UniProt P37231)
One construct used (P37231 238-503, limits assumed): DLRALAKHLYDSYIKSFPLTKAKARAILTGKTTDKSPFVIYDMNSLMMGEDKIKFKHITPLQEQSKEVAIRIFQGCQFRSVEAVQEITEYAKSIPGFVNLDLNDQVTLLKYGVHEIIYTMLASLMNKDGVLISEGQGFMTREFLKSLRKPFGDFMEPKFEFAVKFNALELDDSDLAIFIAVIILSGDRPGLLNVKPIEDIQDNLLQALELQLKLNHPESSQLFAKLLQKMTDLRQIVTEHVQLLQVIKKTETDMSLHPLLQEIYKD

`CC(C)(Oc1ccc(CCNC(=O)c2ccc(Cl)cc2)cc1)C(=O)O` gave an EC10 of 3.09 µM (reporter gene, agonist, β-lactamase reporter; HEK293-H cells; 24 h, nominal concentration; baseline: 10% of rosiglitazone maximum effect).
The fold change of `CCOC(=O)c1ccc(NC(=O)c2cc3cc(S(N)(=O)=O)ccc3oc2=O)cc1` is reported as 1.6 (ELISA, measured: PPARγ protein; concentration not given; baseline: control).
The specificity ratio of `CC(C)(Oc1ccc(Cl)cc1)C(=O)O` is reported as 125 (reporter gene, agonist, β-lactamase reporter; HEK293-H cells; nominal concentration; baseline: cytotoxicity IC10 over EC10).
The Emax of `CSc1ccc(C(=O)/C=C/c2cc(C)c(OC(C)(C)C(=O)O)c(C)c2)cc1` is reported as 73.4% (receptor activation, agonist, cell-based).
The activation of `COc1cccc2c(Nc3ccc4[nH]c(C(=O)N/N=C/c5ccc(SC)cc5)cc4c3)cc(C)nc12` is reported as 1.12 fold (reporter gene, Gal4 hybrid reporter; 3 µM; baseline: vehicle).
`CC(C)(Oc1ccc(CCNC(=O)c2ccc(Cl)cc2)cc1)C(=O)O` — result for “binding free energy”: -6.16 kcal/mol (ITC; binary complex no Med1).
`CCCCCCCC(=O)c1cc(OC)c(OC)c(OC)c1CC(=O)OCC` has an activation of 1.69 fold (reporter gene, Gal4 hybrid reporter; 10 µM; baseline: vehicle).
`O=c1[nH]c2ccccc2s1` gave an EC10 of 31.9 µM (reporter gene, agonist, β-lactamase reporter; HEK293-H cells; freely dissolved concentration).
`CN(CCOc1ccc(CC2SC(=O)NC2=O)cc1)c1ccccn1` (stereo not shown): “binding free energy” -6.58 kcal/mol (ITC; binary complex no Med1).
`CCC(=O)NS(=O)(=O)c1ccc(-c2c(-c3ccccc3)noc2C)cc1` has an activation of 4.22 fold (reporter gene, Gal4 hybrid reporter; 50 µM; baseline: vehicle).
The Emax of `CCO[C@@H](Cc1ccc(OCCn2c(C)ccc2-c2ccc(SC)cc2)cc1)C(=O)O` is reported as 149% (receptor activation, agonist, cell-based).
`CCN1CCN(c2cc(N3CCN(CC)CC3)nc(NCCNc3ccnc4cc(Cl)ccc34)n2)CC1` gave an activation of 2.11 fold (reporter gene, Gal4 hybrid reporter; 20 µM; baseline: vehicle).
`CCCc1nc2c(C)cc(-c3nc4ccccc4n3C)cc2n1Cc1ccc(-c2ccccc2C(=O)O)cc1`: “binding free energy” -7.11 kcal/mol (ITC; binary complex no Med1).
